# Assay results of several laboratories.
# Each line is one published result; not all experiments were run side by side. Numbers after ± are the reported error.
Compound,test,system,setting,how to read,endpoint,value
CCCC[C@@H]1NC(=O)[C@@H](NC(=O)[C@H](CCC(=O)O)NC(=O)CNC(=O)CN2CCN(CC(=O)O)CCN(CC(=O)O)CCN(CC(=O)O)CC2)CCCCNC(=O)C[C@@H](C(N)=O)NC(=O)[C@H](C(C)C)NC(=O)[C@@H]2CCCN2C(=O)[C@H](CCCNC(=N)N)NC(=O)CNC(=O)[C@H](Cc2c[nH]c3ccccc23)NC(=O)[C@H](CCCNC(=N)N)NC(=O)[C@@H](Cc2ccccc2)NC(=O)[C@H](Cc2c[nH]cn2)NC(=O)[C@H](CCC(=O)O)NC1=O [gallium-67 labelled],,B16/F1 melanoma-bearing C57 mice,"intravenous, 0.037 MBq, 24 h",,tumour to muscle ratio,55.8
CC(C)(C)ONc1nc(Nc2ccnc(C(F)(F)F)c2)nc(-c2cccc(C(F)(F)F)n2)n1,,female Balb/cA nude mice xenograft,"oral, 18.05 mg/kg, half-life",reference: tumour over plasma,tumour to plasma ratio,2.7 fold
CCCC[C@H](NC(=O)CNC(=O)CNC(=O)CN1CCN(CC(=O)O)CCN(CC(=O)O)CCN(CC(=O)O)CC1)C(=O)N[C@H]1CC(=O)NCCCC[C@@H](C(N)=O)NC(=O)[C@H](Cc2c[nH]c3ccccc23)NC(=O)[C@H](CCCNC(=N)N)NC(=O)[C@@H](Cc2ccccc2)NC(=O)[C@H](Cc2c[nH]cn2)NC1=O [gallium-67 labelled],,"female C57 mice, B16/F1 melanoma","intravenous, 0.037 MBq, 0.5 h",reference: tumour over lung,tumour to tissue ratio,8.35
N=C(N)NCCC[C@H](NC(=O)CON=C[C@H](F)[C@@H](O)[C@H](O)[C@H](O)CO)C(=O)NCC(=O)N[C@@H](CC(=O)O)C(=O)O [fluorine-18 labelled],,"nude mice, U-87 MG xenograft, tumour","intravenous, 0.5 h",,tumour uptake,0.94 ± 0.25 %ID/g
CCN(CC)c1ccc2c(-c3ccc(S(=O)(=O)NCCNC(=O)CN4CCN(CC(=O)[O-])CCN(CC(=O)O)CCN(CC(=O)[O-])CC4)cc3S(=O)(=O)[O-])c3ccc(=[N+](CC)CC)cc-3oc2c1.[64Cu+2],,"athymic nude mice, U-87 MG glioma xenograft","intravenous, 24 h post-injection",,tumour uptake,5.14 ± 1.5 %ID/g
C[C@]12CC[C@@H]3c4ccc(OCC(=O)N[C@@H](CCCCNC(=O)CN5CCN(CC(=O)[O-])CCN(CC(=O)[O-])CCN(CC(=O)[O-])CC5)C(=O)O)cc4CC[C@H]3[C@@H]1CCC2=O.[68Ga+3],,"female nude mice, MCF7 xenograft",2.5 h post injection,,tumour uptake,2.69 ± 0.57 % IA/g
CCCC[C@H](NC(=O)CNC(=O)CNC(=O)CN1CCN(CC(=O)O)CCN(CC(=O)O)CC1)C(=O)N[C@H]1CC(=O)NCCCC[C@@H](C(N)=O)NC(=O)[C@H](Cc2c[nH]c3ccccc23)NC(=O)[C@H](CCCNC(=N)N)NC(=O)[C@@H](Cc2ccccc2)NC(=O)[C@H](Cc2c[nH]cn2)NC1=O [gallium-67 labelled],,"female C57 mice, B16/F1 melanoma","intravenous, 0.037 MBq, 4 h",reference: tumour over kidney,tumour to tissue ratio,2.4
N=C(N)NCCC[C@H](NC(=O)[C@@H]1CSSC[C@H](NC(=O)[C@H](Cc2ccc3ccccc3c2)NC(=O)[C@H](CCCNC(=N)N)NC(=O)[C@H](CCCNC(=N)N)NC(=S)Nc2ccc(C[C@H]3CN(CC(=O)O)CCN(CC(=O)O)CCN3CC(=O)O)cc2)C(=O)N[C@@H](Cc2ccc(O)cc2)C(=O)N[C@@H](CCCNC(N)=O)C(=O)N[C@@H](CCCCN)C(=O)N[C@H](CCCCN)C(=O)N2CCC[C@H]2C(=O)N[C@@H](Cc2ccc(O)cc2)C(=O)N[C@@H](CCCNC(=N)N)C(=O)N[C@@H](CCCNC(N)=O)C(=O)N1)C(N)=O [copper-64 labelled],PET,"mice with CHO-CXCR4 tumours, CHO-CXCR4 tumour","100 µCi, 4 h",,tumour uptake,4.38 ± 0.68 %ID/g
N=C(N)NCCC[C@@H]1NC(=O)[C@H](CCCCNC(=O)CON=C[C@H](F)[C@@H](O)[C@H](O)[C@H](O)CO)NC(=O)[C@@H](Cc2ccc(O)cc2)NC(=O)[C@H](CC(=O)O)NC(=O)CNC1=O [fluorine-18 labelled],,"nude mice, U-87 MG xenograft, tumour","intravenous, 2 h",,tumour uptake,1.53 ± 1.59 %ID/g
N=C(N)NCCC[C@H](NC(=O)[C@@H]1CSSC[C@H](NC(=O)[C@H](Cc2ccc3ccccc3c2)NC(=O)[C@H](CCCNC(=N)N)NC(=O)[C@H](CCCNC(=N)N)NC(=O)CN2CCN(CC(=O)O)CCN(CC(=O)O)CCN(CC(=O)O)CC2)C(=O)N[C@@H](Cc2ccc(O)cc2)C(=O)N[C@@H](CCCNC(N)=O)C(=O)N[C@@H](CCCCN)C(=O)N[C@H](CCCCN)C(=O)N2CCC[C@H]2C(=O)N[C@@H](Cc2ccc(O)cc2)C(=O)N[C@@H](CCCNC(=N)N)C(=O)N[C@@H](CCCNC(N)=O)C(=O)N1)C(N)=O [copper-64 labelled],PET,mice,1 to 24 h,reference: CXCR4-positive over CXCR4-negative tumour,tumour uptake ratio,8 to 10
O=C([O-])CN1CCN(CC(=O)[O-])CCN(CC(=O)NCCc2ccc3c(c2)C2C=CCC2C(c2cc4c(cc2Br)OCO4)N3)CCN(CC(=O)[O-])CC1.[111In+3] (centres unmarked),,mice with Hec50 tumour xenograft,1 h,reference: tumour over muscle,tumour to tissue ratio,3.55

# For quick reference, copied from above:
Compound,test,system,setting,how to read,endpoint,value
O=C([O-])CN1CCN(CC(=O)[O-])CCN(CC(=O)NCCc2ccc3c(c2)C2C=CCC2C(c2cc4c(cc2Br)OCO4)N3)CCN(CC(=O)[O-])CC1.[111In+3] (centres unmarked),,mice with Hec50 tumour xenograft,1 h,reference: tumour over muscle,tumour to tissue ratio,3.55
